Earlier results as cited in several papers.
Each numbered part shows a few of the values that one paper quotes. In brackets after ≈: the same amount, converted by molar mass.

Set 1
Target: HLA class I histocompatibility antigen, B alpha chain, allele B*46:01 (Homo sapiens, UniProt P01889)
Effect on: peptide-MHC binding
Form: peptide
Measurement: IC50
Sequence = LVQPGRSL; result = 6.23 µM
Sequence = YTNVVPLVY; result = 0.00139 µM
Sequence = KTDEVVTL; result = 39.8 µM

Further values, each from its own experiment
Substance = CC[C@@H](CO)NCCN[C@@H](CC)CO; organism = Mycobacterium tuberculosis; strain = H37Ra; measurement = MIC; result = 8 µg/mL (≈ 39.2 µM)
Substance = Picrotoxin; organism = Cryptosporidium parvum; technique = HTS; concentration = concentration not given; measurement = activity; result = inactive
Substance = CN1CC[C@H](c2c(O)cc(O)c3c(=O)cc(-c4ccccc4Cl)oc23)[C@H](O)C1; organism = HIV-1; effect on = viral replication; measurement = EC50; result = < 10 nM
Substance = Nc1ccc(O)c(C(=O)O)c1; organism = bacteria; concentration = 100 µM; measurement = reduction of polyP accumulation; result = 50 to 60%
Substance = C[C@@H](O)[C@H]1C(=O)N2C(C(=O)O)=C(SCCN=CN)C[C@H]12; organism = Mycobacterium tuberculosis; strain = H37Ra; measurement = MIC; result = 16 µg/mL (≈ 53.4 µM)
